Measured values gathered from unrelated publications.
Each line is one published result; not all experiments were run side by side. pIC50: −log10 of the molar value.
Target: Gag-Pol polyprotein, reverse transcriptase (gag-pol, Human immunodeficiency virus type 1 group M subtype B, UniProt P04585)
Read-out: enzyme activity
Action: inhibitor

Cc1c(Br)cnc2c1NC(=O)c1cccnc1N2C1CC1
pIC50 (ELISA): 5.56

O=C1Nc2cccnc2N(C2CC2)c2ncccc21
pIC50 (ELISA): 9.07

O=C1Nc2c(CO)ccnc2N(C2CC2)c2ncccc21
pIC50 (ELISA): 4.58

COC(=O)c1ccccc1NC(=O)Cc1cn(OC)c2ccccc12
pIC50: < 4.52

Cc1cc(C#N)cc(C)c1Oc1cc(Nc2ccc(C#N)cn2)nc2ccncc12
pIC50 (ELISA): 6.66

Cc1cnc2c(c1)NC(=O)c1cccnc1N2C1CC1
pIC50 (ELISA): 8.97

Cc1cc(/C=C/C#N)cc(C)c1Oc1cc(Nc2ccc(C#N)cn2)nc2ccncc12
pIC50 (ELISA): 6.76

CCc1c(CC2CCCCC2)nc(SCC(=O)c2ccccc2)[nH]c1=O
pIC50: 6.55

Repeated from above:
Cc1cc(/C=C/C#N)cc(C)c1Oc1cc(Nc2ccc(C#N)cn2)nc2ccncc12
pIC50 (ELISA): 6.76
